Results gathered from unrelated publications.
Values joined by “and” are separate records of one study, mostly repeats; a detail may differ. ± gives the spread as reported.
Cell line: HCT-116

NS(=O)(=O)c1ccc(-n2cc(Cn3c(=O)c(Cc4ccccc4)nc4ccccc43)nn2)cc1  mRNA level (qRT-PCR, refers to: BAX; concentration not given, 72 h; relative to: untreated): 3.56 ± 0.042 fold
O=C(CSc1nc2ccccc2s1)Nc1nonc1[N+](=O)[O-]  GI50 (cell growth or viability, ATP luminescence): 14.7 µM
COC(=O)CCNC(=O)CNC(=O)CCn1nc(Cc2ccccc2)c2ccccc2c1=O  late apoptotic cells (0.32 µM, 48 h): 7.67%
CSc1nc(Nc2ccc(/C(C)=N/NC(=O)c3ccc([N+](=O)[O-])cc3[N+](=O)[O-])cc2)c(C#N)c(-c2ccccc2)n1  necrotic cells (annexin V-FITC/PI flow cytometry; 1.14 µM, 24 h): 0.19%
N=C(N)NCCC[C@@H](N)C(=O)N[C@@H](CCCNC(=N)N)C(=O)N[C@@H](Cc1c(F)c(F)c(F)c(F)c1F)C(=O)N[C@@H](CCCNC(=N)N)C(=O)N[C@@H]1CSCCS(=O)(=O)CCSC[C@@H](C(=O)N[C@H](CCCNC(=N)N)C(=O)N[C@@H](CC2CCCCC2)C(=O)N[C@@H](CCCNC(=N)N)C(=O)N2Cc3ccccc3C2C(N)=O)NC(=O)[C@H](Cc2cccc3ccccc23)NC(=O)[C@H](Cc2ccc(O)cc2)NC1=O (some centres unmarked)  EC50: 5.6 ± 2 µM
COc1cc2c(Oc3ccc(Nc4nn(C)cc4C(=O)NC4CCCCC4)cc3F)ccnc2cc1OCCCCCCC(=O)NO  viability (cell growth or viability, MTT; 10 nM, 72 h): ~80%
CC1CCCN(CCCNC(=O)C2=Cc3sc4c(c3CS2)CCCC4)C1 (centres unmarked)  uncleaved SREBP2 level (immunoblot; 20 µM): no effect
COc1cc(CNC(=O)C[C@H](C)CCC=C(C)C)ccc1OCc1cn(-c2ccc(F)cc2)nn1  growth percent (SRB; 10 µM, 48 h): 47.9%
COc1ccc(NC(=O)N/N=C2\CC3(CCN(C)CC3)Oc3ccccc32)cc1  cell cycle distribution (PI staining, flow cytometry; concentration not given, %S): 42.7%
CCOP(=O)(OCC)OCCCCOC(=O)C(C)c1ccc(CC(C)C)cc1 (centres unmarked)  nuclear β-catenin level (western blot; concentration not given; relative to: vehicle): decreased
O=C1Nc2ccccc2/C1=N\Nc1nnc2n1N=C(c1ccc(Cl)cc1)CS2  inhibition (cell growth or viability, SRB; 10 µM): 17%
CC(C)C1=C(O)C(=O)C2=C(C1=O)[C@H](O)[C@@H](O)[C@H]1C(C)(C)CCC[C@]21C  GI50 (cell growth or viability, SRB; 48 h): ≥ 50 µM
CCN1CCN(Cc2ccc(Nc3ncc4c(n3)N(C)c3ccccc3C(=O)N4C)cc2C(F)(F)F)CC1  EC50 (cell growth or viability, ATP luminescence; 96 h): 0.553 µM
COc1cc(CNC(=O)C[C@H](C)CCC=C(C)C)ccc1OCc1cn(-c2ccccc2)nn1  growth percent (SRB; 10 µM, 48 h): 96.7%
Cc1nc2ccc(Br)cc2c(=O)n1N  viability (cell growth or viability, LDH; 200 µg/mL, 24 h): 48.2%
N=C(N)NCCC[C@H](NC(=O)[C@H](CCCNC(=N)N)NC(=O)[C@H](CCCNC(=N)N)NC(=O)[C@H](CCCNC(=N)N)NC(=O)[C@H](CCCNC(=N)N)NC(=O)[C@H](CCCNC(=N)N)NC(=O)[C@H](CCCCN)NC(=O)[C@@H]1CCCN1C(=O)Cc1ccc(O)cc1)C(N)=O  cellular over enzymatic IC50 ratio (refers to: N-terminal SPK trimethylation): > 100 fold
CC(C)OC1(CO)CCC2C(C)(CO)C(O)CCC2(C)C1C=CC1=CCOC1=O (centres unmarked)  inhibition (cell growth or viability, MTT; 20 µM, 48 h): 59%
CC(=O)OC[C@H]1O[C@@H](Sc2sc(C(=O)c3ccc(C)cc3)c(N)c2-c2nc3ccccc3s2)[C@H](OC(C)=O)[C@@H](OC(C)=O)[C@H]1OC(C)=O  growth (SRB; 10 µM, 48 h; relative to: untreated): 106%
O=C(COc1ccccc1/C=N/Nc1nc(-c2ccc(Cl)cc2)cs1)N1CCN(C(=O)COc2ccccc2/C=N/Nc2nc(-c3ccc(Cl)cc3)cs2)CC1  inhibition (cell growth or viability, SRB; 100 µM, 48 h): 63.6%
COc1ccc(NC(=O)CCc2nc3cc(Cl)ccc3[nH]c2=O)cc1  selectivity index (MTT; relative to: WI-38 IC50 over HCT-116 IC50): 15.3
[Cl][Au]1[P](c2ccccc2)(c2ccccc2)C[P](c2ccccc2)(c2ccccc2)[Au]([Cl])[P](c2ccccc2)(c2ccccc2)C[P]1(c1ccccc1)c1ccccc1  IC90 (cell growth or viability, trypan blue; 48 h): 2.7 µM
N=C(N)NS(=O)(=O)c1ccc(-n2cc(Cn3c(=O)c(Cc4ccccc4)nc4ccccc43)nn2)cc1  selectivity index (MTT; relative to: HCT-116 over normal colonocytes): 3.96 and 3.97
CC(Cc1ccc(Cl)cc1)=C(c1ccc(Cl)cc1)c1ccc(OCCN(C)C)cc1  GI50 (cell growth or viability, SRB): 3.03 µM
CC(C)(C)CC(C)(C)Nc1c(-c2ccc3c(c2)OCO3)nc2cnccn12  cell migration (scratch; 25 µM, 24 h; relative to: untreated): 34%
C=CCSc1nc(N)c2c(F)c(C#N)c(F)c(Cl)c2n1  cells in S phase (DAPI staining imaging; 1.02 µM, 24 h): 8.33%
Cc1ccc(C(C)C)cc1.[Cl][Au].[Cl][Ru][Cl].c1ccc(P(CP(c2ccccc2)c2ccccc2)c2ccccc2)cc1  IC75 (cell growth, trypan blue exclusion; 48 h, DMSO 1%): 9.9 ± 0.2 µM
COc1cc(CNC(=O)C[C@H](C)CCC=C(C)C)ccc1OCc1cn(-c2ccc(Br)cc2)nn1  growth percent (SRB; 10 µM, 48 h): 41.9%
O=C(COc1ccc(/C=N/Nc2nc(-c3ccc(Cl)cc3)cs2)cc1)N1CCN(C(=O)COc2ccc(/C=N/Nc3nc(-c4ccc(Cl)cc4)cs3)cc2)CC1  inhibition (cell growth or viability, SRB; 100 µM, 48 h): 53.1%
N#Cc1c(F)c(F)c2nc(SCc3ccc4ccccc4c3)nc(N)c2c1F  cells in G2/M phase (DAPI staining imaging; 2.56 µM, 24 h): 51.8%
COc1cc(CNC(=O)C[C@H](C)CCC=C(C)C)ccc1O  growth percent (SRB; 10 µM, 48 h): 94.1%
CC12COC(c3ccccc3)OC1CCC1(C)C(C=CC3=CCOC3=O)C(CO)=CCC21 (centres unmarked)  inhibition (cell growth or viability, MTT; 20 µM, 48 h): 34.7%
O=C(Cn1c(=O)c(Cc2ccccc2)nc2ccccc21)OCCNCCO  mRNA level (qRT-PCR, refers to: HIF-1α; concentration not given, 72 h; relative to: untreated): 0.273 ± 0.002 fold
COCCSc1nc(N)c2c(F)c(C#N)c(F)c(Cl)c2n1  cells in G2/M phase (DAPI staining imaging; 1.02 µM, 24 h): 29.9%
O=C(Cn1c(=O)c(Cc2ccccc2)nc2ccccc21)NN1C(=O)c2ccccc2C1=O  mRNA level (qRT-PCR, refers to: BCL-2; concentration not given, 72 h; relative to: untreated): 0.561 ± 0.032 fold
Cn1c(=O)c(C(=O)N/N=C/c2ccccc2/C=N/NC(=O)c2nc3ccccc3n(C)c2=O)nc2ccccc21  inhibition (cell growth or viability, MTT; 10 µM): 63.8%

A few entries again:
CC(C)C1=C(O)C(=O)C2=C(C1=O)[C@H](O)[C@@H](O)[C@H]1C(C)(C)CCC[C@]21C  GI50 (cell growth or viability, SRB; 48 h): ≥ 50 µM
CCN1CCN(Cc2ccc(Nc3ncc4c(n3)N(C)c3ccccc3C(=O)N4C)cc2C(F)(F)F)CC1  EC50 (cell growth or viability, ATP luminescence; 96 h): 0.553 µM
COc1cc(CNC(=O)C[C@H](C)CCC=C(C)C)ccc1OCc1cn(-c2ccccc2)nn1  growth percent (SRB; 10 µM, 48 h): 96.7%
